# Results of several laboratories.
# Protocols differ between the studies behind these lines.
Structure (SMILES),cell line,assay,setting,IC50
CCn1cc(/C=C/c2ccc3ccccc3[n+]2CC)c2ccccc21,HTB26,"cell growth or viability, MTT",24 h,4.45 µM
N#Cc1cccc(-c2ccc(=O)n(Cc3cccc(-c4ncc(OCC5CCN(CC(=O)N6CCN(CCNc7ccc8c(c7)C(=O)N(C7CCC(=O)NC7=O)C8=O)CC6)CC5)cn4)c3)n2)c1 (centres unmarked),EBC-1,"cell growth or viability, CCK-8",72 h,0.00244 µM
CCN(CC)CCCOc1ccc(-c2ccc3[nH]c4ncc(/C=C/c5ccccc5)cc4c3c2)cc1,Ba/F3 NPM-ALK,"cell proliferation, [3H]-thymidine incorporation",,0.54 µM
CC(=O)N[C@H](CCCNC(=N)N)C(=O)N[C@@H](CC(=O)N[C@H](Cc1ccccc1)C(=O)N[C@H](CC(=O)O)C(N)=O)c1ccc2ccccc2c1,BT-474,"cell growth or viability, ATP luminescence",72 h,> 50 µM
COCCNc1nc(-c2nccn2C)nc2sc(-c3cccc(OC)c3Cl)c(-c3ccccc3)c12,MIA PaCa-2 (KRAS G12C),"Western blot, refers to: phospho-MEK, ERK1/2 and Akt","6 h, together with: EGF 15 min",1 to 3 µM
COc1ccc2cc3[n+](cc2c1OCc1cn(Cc2c(Cl)cccc2Cl)nn1)CCc1cc2c(cc1-3)OCO2,SMMC-7721,"cell growth or viability, MTT",,15.7 µM
CC(C)c1ccc(C[C@H](C)C(=O)NC(=O)N[C@@H]2O[C@H](CO)[C@@H](O)[C@H](O)[C@H]2O)cc1,human T-lymphocyte,cell growth or viability,72 h,> 250 µM
O=C(/C=C/c1ccccc1)OCCCC[P+](c1ccccc1)(c1ccccc1)c1ccccc1,L02,"cell growth or viability, SRB",24 h,105 µM
CC(=O)NCCCN(C)CCCNc1cccc2c1C(=O)c1cccc(NCCCN(C)CCCNC(C)=O)c1C2=O,mouse bone marrow cells,"cell proliferation, CCK-8",48 h,6 µM
Cc1ccc2nc(Cl)c(-c3nc4cc(Br)ccc4[nH]3)cc2c1,L02,"cell growth or viability, MTT",48 h,> 100 µM
CC1CCN(Cc2cc(/C=C/C(=O)c3ccc(F)cc3)ccc2O)CC1,WRL68,"cell growth or viability, MTT",72 h,10.4 µM
CCCCNC(=O)O[C@H]1[C@H](C)O[C@@H](O[C@H]2[C@H](N(C)C)[C@@H](O)[C@H](O[C@H]3[C@@H](CC=O)C[C@@H](C)[C@@H](O[C@H]4CC[C@H](N(C)C)[C@@H](C)O4)/C=C/C=C/C[C@@H](C)OC(=O)C[C@@H](O)[C@@H]3OC)O[C@@H]2C)C[C@@]1(C)O,GES1,"cell growth or viability, CCK-8",72 h,> 50 µM
CC(=O)OC[C@H]1O[C@@H](NC(=O)NC(=O)/C=C/c2ccc(-c3ccccc3)cc2)[C@H](OC(C)=O)[C@@H](OC(C)=O)[C@@H]1OC(C)=O,human T-lymphocyte,cell growth or viability,72 h,110 µM
CC[C@H](C)[C@H](NC(=O)[C@H](Cc1ccc(OP(=O)(O)O)cc1)NC(=O)[C@H](CC(=O)O)NC(=O)[C@H](CCCCN)NC(=O)CNC(=O)[C@H](CC(=O)O)NC(=O)[C@H](CCC(N)=O)NC(=O)[C@@H](N)CCC(N)=O)C(=O)N[C@H](C(=O)N[C@@H](CC(C)C)C(=O)N1CCC[C@H]1C(=O)N[C@H](C(=O)N[C@@H](CO)C(=O)N[C@@H](CCC(=O)O)C(=O)N[C@H](C(=O)N[C@@H](CCCCNC(=O)CNC(=O)[C@H](CCCCN)NC(=O)[C@H](CCCNC(=N)N)NC(=O)[C@H](Cc1ccccc1)NC(=O)[C@H](CCCNC(=N)N)NC(=O)[C@H](CCCNC(=N)N)NC(=O)[C@H](CCCNC(=N)N)NC(=O)[C@H](CO)NC(=O)[C@H](Cc1ccc(O)cc1)NC(=O)[C@H](CO)NC(=O)[C@H](CC(C)C)NC(=O)[C@H](CCCNC(=N)N)NC(=O)[C@@H](N)CCCNC(=N)N)C(N)=O)[C@@H](C)O)[C@@H](C)CC)C(C)C,HPAEC,"ERK1/2 phosphorylation, inhibitor, Western blot","0.5 h pre-incubation, serum-free medium, together with: 1 ng/mL VEGF",24.7 µM
CC/C(=C(/c1ccc(O)cc1)c1ccc(OCCN(C)CCOCCOCCOCCOCCOC)cc1)c1ccccc1,MCF7 (ER-positive),cell growth,96 h,0.4 µM
CC(C)N(C[C@H]1O[C@@H](n2cnc3c(N)ncnc32)[C@H](O)[C@@H]1O)C1CC2CN(Cc3ccc(S(C)(=O)=O)cc3)CC2C1 (some centres unmarked),H460 wild type,cell growth,72 h,> 100 µM
COc1ccc2nc(Cl)c(-c3nc4cc(Cl)ccc4[nH]3)cc2c1,BEL-7404,"cell growth or viability, MTT",48 h,26.7 µM
CN1CCN(C(=O)N(CCCCCCC(=O)NO)c2ccc(-c3ccc4cnn(C)c4c3)cc2)CC1,MM1.S,"cell growth or viability, ATP luminescence",72 h,0.0388 µM
CC(=O)c1cnc(N)nc1N1CC[C@H]1c1nn2ccc(Cl)c2c(=O)n1-c1ccccc1,CD4+ T,"IL-2 release, inhibitor",,0.009 µM
CO[C@@H]1[C@@H](O[C@@H]2O[C@H](C)[C@@H](O[C@H]3C[C@@](C)(O)[C@@H](OC(=O)NC4CCCCC4)[C@H](C)O3)[C@H](N(C)C)[C@H]2O)[C@@H](CC=O)C[C@@H](C)[C@@H](O[C@H]2CC[C@H](N(C)C)[C@@H](C)O2)/C=C/C=C/C[C@@H](C)OC(=O)C[C@H]1O,GES1,"cell growth or viability, CCK-8",72 h,> 50 µM
COc1ccc2cc3[n+](cc2c1OCc1cn(Cc2cccc(Br)c2)nn1)CCc1cc2c(cc1-3)OCO2,SMMC-7721,"cell growth or viability, MTT",,33.5 µM
Clc1nc2ccccc2cc1-c1nc2cc(Br)ccc2[nH]1,BEL-7404,"cell growth or viability, MTT",48 h,30 µM
COc1c(OCc2ccccc2)cc2oc3cc(OCc4ccccc4)c(CC=C(C)C)c(O)c3c(=O)c2c1CC=C(C)C,SMMC-7721,cell growth or viability,48 h,11.6 µM
CN1CCN(Cc2ccc(-c3ccc4[nH]c5ncc(/C=C/c6ccccc6)cc5c4c3)cc2)CC1,Ba/F3 NPM-ALK,"cell proliferation, [3H]-thymidine incorporation",,2.5 µM
CC(C)(C)N=[C](NCc1ccc(N)cc1)[AuH][Cl],MRC5,cell growth or viability,,> 100 µM
O=C(CCCCC1SCC2NC(=O)NC21)NCCCCC(CN1CCCC1CN1C(=O)C(=O)NCC1Cc1ccccc1)N1CC(Cc2ccc(O)cc2)N(CCc2ccccc2)C(=O)C1=O (centres unmarked),WM 266-4,"cell growth or viability, ATP luminescence",72 h,> 100 µM
C=C[CH2][Pd-]([Cl])[Cl].Cc1cc(C)c(-n2c[n+](-c3c(C)cc(C)cc3C)c3c2-c2cccc4cccc-3c24)c(C)c1,NTERA2,"cell growth or viability, MTT",72 h,5 µM
Oc1ccc(C(=NNc2ccccc2)c2ccc(O)cc2)cc1,NCI-H441,"cell growth or viability, ATP luminescence",72 h,30.9 µM
COC1=C(OC)C(O)C(CC=C(C)CCC=C(C)CCC=C(C)C(=O)O)C(C)C1=O (centres unmarked),NCI-H441,"cell growth or viability, MTS",72 h,> 25 µM
Cc1ccc2nc(Cl)c(-c3nc4cc(F)ccc4[nH]3)cc2c1,BEL-7404,"cell growth or viability, MTT",48 h,> 100 µM
COc1cc(N2CCN(C(=O)C3CCCN3)CC2)ccc1Nc1ncc(Cl)c(Nc2ccccc2P(C)(C)=O)n1 (centres unmarked),NCI-H3122,"cell growth or viability, CCK-8",48 h,0.034 µM
CCCCCCCCCCCCCCn1c(-c2cccnc2)nc(-c2ccc(C)cc2)c1-c1ccc(C)cc1,BT-474,"cell growth or viability, SRB",48 h,> 100 µM
Cc1ccc(C(=O)C2Sc3nnc(-n4nc(C)cc4C)n3NC2c2ccc(Cl)cc2)cc1 (racemic),LN-229,"cell growth or viability, imaging",72 h,> 100 µM
Cc1cc(C)c([N+]#[C][Pt-]([Cl])([Cl])=[C](Nc2ccc(CN[C](Nc3c(C)cc(C)cc3C)=[Au][Cl])cc2)Nc2c(C)cc(C)cc2C)c(C)c1,MRC5,cell growth or viability,,> 100 µM
N#Cc1cccc(-c2ccc(=O)n(Cc3cccc(-c4ncc(OCC5CCN(CCCCCCCCCC(=O)Nc6cccc7c6C(=O)N(C6CCC(=O)NC6=O)C7=O)CC5)cn4)c3)n2)c1 (centres unmarked),EBC-1,"cell growth or viability, CCK-8",72 h,0.0379 µM
CCCC(CCC)C(=O)[O][Pt]([Cl])([Cl])[O]C(=O)C(CCC)CCC.N.N,BXPC-3,cell growth or viability,,1.13 µM
C#CCNC(=O)C(CC)C1CCC(C)C(C(C)C(O)C(C)C(=O)C(CC)C2OC3(C=CC(O)C4(CCC(C)(C5CCC(O)(CC)C(C)O5)O4)O3)C(C)CC2C)O1 (centres unmarked),ALL5,"cell growth or viability, MTT",5 days,9.4 µM
CC(C)C[C@@H]1NC(=O)[C@H](Cc2c[nH]c3ccccc23)NC(=O)CNC(=O)[C@@H]2CCCN2C(=O)[C@H]2CCCN2C(=O)[C@H]([C@@H](C)O)NC1=O,BT-474,"cell growth or viability, ATP luminescence",72 h,> 100 µM
CCCC(CCC)C(=O)[O][Pt]1([O]C(=O)C(CCC)CCC)[O]C(=O)C(=O)[O]1.NC1CCCCC1N,BXPC-3,cell growth or viability,,14.4 µM
COc1c(O)c(Br)c2oc3c(Br)c(O)c(CC=C(C)C)c(O)c3c(=O)c2c1CC=C(C)C,SMMC-7721,cell growth or viability,48 h,8.07 µM
CC(C)c1ccc(/C=C/C(=O)NC(=O)N[C@@H]2O[C@H](CO)[C@@H](O)[C@H](O)[C@H]2O)cc1,human T-lymphocyte,cell growth or viability,72 h,22 µM
Fc1ccc2[nH]c(-c3cc4ccccc4nc3Cl)nc2c1,L02,"cell growth or viability, MTT",48 h,> 100 µM
C=C[C@@]12COC(=O)C(=C)[C@@H]1[C@H]1OC(=O)C(=C)[C@@H]1[C@@H](OC(=O)OCCN(C)c1ccc([N+](=O)[O-])c3nonc13)C2,JIMT-1,"cell growth or viability, MTT",72 h,10.3 µM
CCCn1c(-c2cccnc2)nc(-c2ccc(C)cc2)c1-c1ccc(C)cc1,BT-474,"cell growth or viability, SRB",24 h,97.1 µM
CO[C@@H]1[C@@H](O[C@@H]2O[C@H](C)[C@@H](O[C@H]3C[C@@](C)(O)[C@@H](OC(=O)CC(C)C)[C@H](C)O3)[C@H](N(C)C)[C@H]2O)[C@@H](CC=O)C[C@@H](C)[C@@H](O[C@H]2CC[C@H](N(C)C)[C@@H](C)O2)/C=C/C=C/C[C@@H](C)OC(=O)C[C@H]1O,GES1,"cell growth or viability, CCK-8",72 h,18.5 µM
CC(C)c1cccc(C(C)C)c1-n1c2c([n+](-c3c(C(C)C)cccc3C(C)C)[c]1[Cu-][Cl])-c1cccc3cccc-2c13,NTERA2,"cell growth or viability, MTT",72 h,4 µM
CC1=C2[O][Ru-]([Cl])[O+]=C2C=CN1CCCN1C=CC2=[O+][Ru-]([Cl])[O]C2=C1C.Cc1ccc(C(C)C)cc1.Cc1ccc(C(C)C)cc1,5637-oxo oxoplatin-resistant,crystal violet,96 h,> 20 µM
CCCCCCCCC=CCCCCCCCCn1c(-c2cccnc2)nc(-c2ccc(C)cc2)c1-c1ccc(C)cc1,BT-474,"cell growth or viability, SRB",24 h,> 100 µM
Cc1ccc2nc(Cl)c(-c3nc4cc(Cl)c(Cl)cc4[nH]3)cc2c1,L02,"cell growth or viability, MTT",48 h,> 100 µM
CC/C(=C(\c1ccc(O)cc1)c1ccc(OCCN(C)CCOCCOCCOCCOCCOCCN(C)CCOc2ccc(/C(=C(/CC)c3ccccc3)c3ccc(O)cc3)cc2)cc1)c1ccccc1,MCF7 (ER-positive),cell growth,96 h,0.08 µM

# For quick reference, copied from above:
Structure (SMILES),cell line,assay,setting,IC50
Oc1ccc(C(=NNc2ccccc2)c2ccc(O)cc2)cc1,NCI-H441,"cell growth or viability, ATP luminescence",72 h,30.9 µM
CN1CCN(Cc2ccc(-c3ccc4[nH]c5ncc(/C=C/c6ccccc6)cc5c4c3)cc2)CC1,Ba/F3 NPM-ALK,"cell proliferation, [3H]-thymidine incorporation",,2.5 µM
CO[C@@H]1[C@@H](O[C@@H]2O[C@H](C)[C@@H](O[C@H]3C[C@@](C)(O)[C@@H](OC(=O)NC4CCCCC4)[C@H](C)O3)[C@H](N(C)C)[C@H]2O)[C@@H](CC=O)C[C@@H](C)[C@@H](O[C@H]2CC[C@H](N(C)C)[C@@H](C)O2)/C=C/C=C/C[C@@H](C)OC(=O)C[C@H]1O,GES1,"cell growth or viability, CCK-8",72 h,> 50 µM
Fc1ccc2[nH]c(-c3cc4ccccc4nc3Cl)nc2c1,L02,"cell growth or viability, MTT",48 h,> 100 µM
CC(C)N(C[C@H]1O[C@@H](n2cnc3c(N)ncnc32)[C@H](O)[C@@H]1O)C1CC2CN(Cc3ccc(S(C)(=O)=O)cc3)CC2C1 (some centres unmarked),H460 wild type,cell growth,72 h,> 100 µM
